Assay results collected from several papers.
Compare with care: the assays were run in different laboratories.

Under “tumour growth inhibition”, `Cc1noc2c1-c1ccccc1C(c1ccc(Cl)cc1)=N[C@H]2CC(N)=O` is recorded as 88% (mouse, MV4-11 subcutaneous xenograft; 60 mg/kg, 14 days).
`C=CC(=O)N1CC2C(=O)N(CCN(C)C)c3c(c4cc(Cl)c(-c5c(O)cccc5F)nc4n(-c4c(C)ccnc4C(C)C)c3=O)N2CC1C` (centres unmarked) — result for “tumour growth inhibition”: 65.9% (mouse, NCI-H2122 subcutaneous xenograft; oral, 30 mg/kg once daily).
Under “tumour growth inhibition”, `CC(C)c1ccc(N(C)c2ccc3c(c2)OCC[C@H]3CNc2cnccc2C(=O)O)cc1` is recorded as 43% (mouse, sample A gastric PDX; 5 mg/kg, day 38).
`CC(C)c1ccccc1[C@@H]1CCCN1C1CC2(CCN(c3ccc(C(=O)NS(=O)(=O)c4ccc(NC[C@H]5CC[C@](C)(O)CC5)c([N+](=O)[O-])c4)c(Oc4cnc5[nH]ccc5c4)c3)CC2)C1`: “tumour growth inhibition” 103% (mouse Maver1 xenograft; oral, 15 mg/kg once daily, day 14).
`COC(=O)C1CN1S(=O)(=O)c1ccc2cc(C)ccc2c1` (centres unmarked): “tumour growth inhibition” 9% (mouse, Lewis lung carcinoma; ip, 100 mg/kg, 240 h).
`CN(C)Cc1nc(Nc2ccc(-c3cnc4cc(F)ccn34)c3c2C(=O)NC3)ccc1C1CCOC1` (centres unmarked): “tumour growth inhibition” about 70% (mouse EMT6 syngeneic tumour; oral, 75 mg/kg once daily; relative to: vehicle).
`CC1(C)CCC(CN2CCN(c3ccc(C(=O)NS(=O)(=O)c4ccc(NCC5CCOCC5)c([N+](=O)[O-])c4)c(Oc4cnc5[nH]ccc5c4)c3)CC2)=C(c2ccc(Cl)cc2)C1`: “tumour growth inhibition” 91% (mouse Maver1 xenograft; oral, 15 mg/kg once daily, day 14).
`CCCCCc1ccc(S(=O)(=O)N2CC2C(=O)OC)cc1` (centres unmarked) — result for “tumour growth inhibition”: 65% (mouse, Lewis lung carcinoma; intraperitoneal, 15 mg/kg, 16 doses, day 16).

For quick reference, copied from above:
`CC(C)c1ccccc1[C@@H]1CCCN1C1CC2(CCN(c3ccc(C(=O)NS(=O)(=O)c4ccc(NC[C@H]5CC[C@](C)(O)CC5)c([N+](=O)[O-])c4)c(Oc4cnc5[nH]ccc5c4)c3)CC2)C1`: “tumour growth inhibition” 103% (mouse Maver1 xenograft; oral, 15 mg/kg once daily, day 14).
